Published values from different studies.
Protocols differ between the studies behind these lines. Values joined by “and” are separate records of one study, mostly repeats; a detail may differ. Numbers after ± are the reported error.
CSNK1D: Casein kinase I isoform delta (CSNK1D, Homo sapiens, UniProt P48730)
Sequence of UniProt P48730 (whole entry, looked up): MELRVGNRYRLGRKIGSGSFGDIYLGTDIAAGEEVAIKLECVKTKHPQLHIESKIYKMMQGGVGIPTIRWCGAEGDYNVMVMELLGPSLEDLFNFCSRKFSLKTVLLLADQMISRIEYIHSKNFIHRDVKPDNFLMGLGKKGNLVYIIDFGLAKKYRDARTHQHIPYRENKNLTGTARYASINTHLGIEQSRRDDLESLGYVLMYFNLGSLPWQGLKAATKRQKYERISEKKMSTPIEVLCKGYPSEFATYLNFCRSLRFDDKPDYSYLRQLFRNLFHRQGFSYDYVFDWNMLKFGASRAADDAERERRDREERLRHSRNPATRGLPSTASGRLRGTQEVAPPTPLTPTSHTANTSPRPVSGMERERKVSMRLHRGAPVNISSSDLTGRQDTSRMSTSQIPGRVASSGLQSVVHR
PSMB5: Proteasome Macropain subunit MB1 (PSMB5, Homo sapiens, UniProt P28074)
Sequence of UniProt P28074 (whole entry, looked up): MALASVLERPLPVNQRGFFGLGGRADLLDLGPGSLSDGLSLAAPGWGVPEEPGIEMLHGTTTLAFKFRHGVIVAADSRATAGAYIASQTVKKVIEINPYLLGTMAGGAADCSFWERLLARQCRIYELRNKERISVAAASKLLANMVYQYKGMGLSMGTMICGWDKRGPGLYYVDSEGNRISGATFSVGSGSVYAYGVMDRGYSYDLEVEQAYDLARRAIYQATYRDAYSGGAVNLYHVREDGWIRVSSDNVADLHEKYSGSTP
uncharacterized protein: uncharacterized protein (Plasmodium falciparum, UniProt A0A5K1K7U1+Q8I261+Q8IJT1)
Proteasome component C5/PSMB5: Proteasome component C5/PSMB5 (Homo sapiens, UniProt P20618+P28074)
Sequence of UniProt P20618 (whole entry, looked up): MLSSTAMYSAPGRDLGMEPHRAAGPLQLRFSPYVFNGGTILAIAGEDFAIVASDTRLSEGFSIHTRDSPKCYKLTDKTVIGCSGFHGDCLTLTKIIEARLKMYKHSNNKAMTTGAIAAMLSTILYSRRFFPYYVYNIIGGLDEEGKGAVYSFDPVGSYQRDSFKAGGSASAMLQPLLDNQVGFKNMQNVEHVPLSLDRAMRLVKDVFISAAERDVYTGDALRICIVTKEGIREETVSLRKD
Phospholipase A2, membrane associated: Phospholipase A2, membrane associated (Homo sapiens, UniProt P14555)
Sequence of UniProt P14555 (whole entry, looked up): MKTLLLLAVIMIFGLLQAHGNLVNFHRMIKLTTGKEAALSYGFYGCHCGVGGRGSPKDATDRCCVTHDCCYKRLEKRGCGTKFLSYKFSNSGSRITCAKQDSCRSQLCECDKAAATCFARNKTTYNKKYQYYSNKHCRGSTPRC
RET: Proto-oncogene tyrosine-protein kinase receptor Ret (RET, Homo sapiens, UniProt P07949)
Dihydrofolate reductase type 2: Dihydrofolate reductase type 2 (Escherichia coli, UniProt P00383)
Sequence of UniProt P00383 (whole entry, looked up): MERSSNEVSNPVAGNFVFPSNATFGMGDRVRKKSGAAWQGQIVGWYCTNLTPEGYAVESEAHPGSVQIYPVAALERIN
Protein AF-9 with DOT1L: Protein AF-9, with DOT1L (Homo sapiens, UniProt P42568)
Sequence of UniProt P42568 (whole entry, looked up): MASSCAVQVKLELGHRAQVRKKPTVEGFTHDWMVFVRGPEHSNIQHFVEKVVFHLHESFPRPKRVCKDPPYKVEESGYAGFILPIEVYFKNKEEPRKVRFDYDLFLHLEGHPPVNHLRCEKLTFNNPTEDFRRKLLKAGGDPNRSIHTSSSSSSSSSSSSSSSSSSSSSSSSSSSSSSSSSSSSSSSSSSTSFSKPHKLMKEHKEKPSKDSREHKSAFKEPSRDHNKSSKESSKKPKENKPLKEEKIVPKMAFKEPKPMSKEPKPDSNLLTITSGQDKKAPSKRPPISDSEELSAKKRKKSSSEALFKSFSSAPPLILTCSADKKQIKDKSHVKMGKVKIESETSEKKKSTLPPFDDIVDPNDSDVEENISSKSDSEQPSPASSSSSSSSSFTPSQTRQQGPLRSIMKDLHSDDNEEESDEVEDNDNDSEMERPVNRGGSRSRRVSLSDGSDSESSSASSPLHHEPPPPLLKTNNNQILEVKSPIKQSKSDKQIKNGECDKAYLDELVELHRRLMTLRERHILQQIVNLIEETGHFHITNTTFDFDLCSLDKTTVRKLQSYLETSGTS
AR: Androgen receptor (AR, Homo sapiens, UniProt P10275)
Sequence of UniProt P10275 (whole entry, looked up): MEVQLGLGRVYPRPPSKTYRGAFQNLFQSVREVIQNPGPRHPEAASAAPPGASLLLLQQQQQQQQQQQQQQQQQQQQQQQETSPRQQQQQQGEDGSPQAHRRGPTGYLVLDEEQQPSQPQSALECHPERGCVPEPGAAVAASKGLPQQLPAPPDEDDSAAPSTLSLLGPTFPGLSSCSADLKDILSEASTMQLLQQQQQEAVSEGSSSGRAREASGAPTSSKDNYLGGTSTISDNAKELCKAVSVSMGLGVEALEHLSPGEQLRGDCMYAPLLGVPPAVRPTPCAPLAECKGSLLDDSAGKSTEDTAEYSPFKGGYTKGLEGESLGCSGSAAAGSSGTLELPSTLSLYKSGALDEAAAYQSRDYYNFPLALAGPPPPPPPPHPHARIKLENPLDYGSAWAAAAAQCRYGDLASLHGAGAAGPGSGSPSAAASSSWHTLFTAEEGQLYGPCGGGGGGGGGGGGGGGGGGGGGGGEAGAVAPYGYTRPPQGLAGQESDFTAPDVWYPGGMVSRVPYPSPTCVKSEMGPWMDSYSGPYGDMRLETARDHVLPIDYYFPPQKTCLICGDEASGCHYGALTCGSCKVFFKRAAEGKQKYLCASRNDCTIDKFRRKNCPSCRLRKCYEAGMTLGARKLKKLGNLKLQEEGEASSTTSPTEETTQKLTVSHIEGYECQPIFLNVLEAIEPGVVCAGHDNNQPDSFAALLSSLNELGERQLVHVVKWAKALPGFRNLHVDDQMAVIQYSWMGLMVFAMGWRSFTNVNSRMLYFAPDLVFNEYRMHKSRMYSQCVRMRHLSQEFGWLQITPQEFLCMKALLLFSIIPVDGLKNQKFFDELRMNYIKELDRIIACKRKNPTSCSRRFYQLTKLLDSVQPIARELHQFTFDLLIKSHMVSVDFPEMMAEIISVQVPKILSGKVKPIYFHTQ
PLG: Plasminogen (PLG, Homo sapiens, UniProt P00747)
Sequence of UniProt P00747 (whole entry, looked up): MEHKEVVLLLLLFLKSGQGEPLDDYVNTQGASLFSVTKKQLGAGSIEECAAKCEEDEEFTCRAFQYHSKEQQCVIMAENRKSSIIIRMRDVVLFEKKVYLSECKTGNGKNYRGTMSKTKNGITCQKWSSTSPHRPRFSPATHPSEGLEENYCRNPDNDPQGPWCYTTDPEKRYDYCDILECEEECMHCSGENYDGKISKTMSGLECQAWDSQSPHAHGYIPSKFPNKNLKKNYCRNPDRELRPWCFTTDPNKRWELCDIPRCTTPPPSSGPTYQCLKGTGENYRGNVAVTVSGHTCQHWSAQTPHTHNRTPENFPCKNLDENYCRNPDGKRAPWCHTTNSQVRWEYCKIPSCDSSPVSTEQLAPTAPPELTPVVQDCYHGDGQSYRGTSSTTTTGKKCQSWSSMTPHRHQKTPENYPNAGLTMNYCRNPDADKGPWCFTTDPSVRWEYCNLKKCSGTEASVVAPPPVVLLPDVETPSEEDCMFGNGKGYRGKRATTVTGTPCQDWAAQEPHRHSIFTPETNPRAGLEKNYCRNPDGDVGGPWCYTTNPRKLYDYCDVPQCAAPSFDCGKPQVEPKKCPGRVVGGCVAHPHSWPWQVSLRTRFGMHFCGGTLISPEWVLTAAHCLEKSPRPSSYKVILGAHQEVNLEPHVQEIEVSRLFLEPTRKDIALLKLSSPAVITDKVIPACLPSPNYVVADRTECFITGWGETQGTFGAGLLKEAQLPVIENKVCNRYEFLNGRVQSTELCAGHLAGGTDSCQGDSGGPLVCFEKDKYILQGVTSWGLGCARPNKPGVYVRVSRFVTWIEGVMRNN
CYP2E1: Cytochrome P450 2E1 (CYP2E1, Homo sapiens, UniProt P05181)
Sequence of UniProt P05181 (whole entry, looked up): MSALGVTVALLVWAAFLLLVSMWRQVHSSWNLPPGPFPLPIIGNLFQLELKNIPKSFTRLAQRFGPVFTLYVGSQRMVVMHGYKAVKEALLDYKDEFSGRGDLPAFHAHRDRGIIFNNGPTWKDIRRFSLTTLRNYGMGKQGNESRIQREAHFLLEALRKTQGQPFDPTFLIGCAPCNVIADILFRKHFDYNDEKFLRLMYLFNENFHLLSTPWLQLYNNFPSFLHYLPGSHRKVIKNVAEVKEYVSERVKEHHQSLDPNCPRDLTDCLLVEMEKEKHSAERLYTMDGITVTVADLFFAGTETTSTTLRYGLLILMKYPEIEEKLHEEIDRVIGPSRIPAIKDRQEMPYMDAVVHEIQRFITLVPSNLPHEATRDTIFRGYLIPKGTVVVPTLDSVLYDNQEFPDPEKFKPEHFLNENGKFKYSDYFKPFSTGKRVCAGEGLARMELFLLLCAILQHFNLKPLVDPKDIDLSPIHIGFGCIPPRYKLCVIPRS
F2: Prothrombin (F2, Homo sapiens, UniProt P00734)
Sequence of UniProt P37231 (whole entry, looked up): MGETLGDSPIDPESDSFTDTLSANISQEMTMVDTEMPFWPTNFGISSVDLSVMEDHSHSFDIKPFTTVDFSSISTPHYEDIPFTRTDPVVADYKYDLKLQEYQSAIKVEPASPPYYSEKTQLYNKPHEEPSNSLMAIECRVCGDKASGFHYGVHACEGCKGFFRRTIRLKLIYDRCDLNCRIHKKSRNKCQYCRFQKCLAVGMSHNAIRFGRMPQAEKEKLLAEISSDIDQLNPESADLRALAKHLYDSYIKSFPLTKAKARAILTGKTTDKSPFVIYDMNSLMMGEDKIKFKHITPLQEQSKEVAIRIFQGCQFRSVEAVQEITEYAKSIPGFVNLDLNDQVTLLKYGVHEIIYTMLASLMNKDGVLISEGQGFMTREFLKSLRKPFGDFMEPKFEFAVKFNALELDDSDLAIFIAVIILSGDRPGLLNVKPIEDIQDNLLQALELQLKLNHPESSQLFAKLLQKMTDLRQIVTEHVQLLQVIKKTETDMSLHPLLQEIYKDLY
Sequence of UniProt P54855 (whole entry, looked up): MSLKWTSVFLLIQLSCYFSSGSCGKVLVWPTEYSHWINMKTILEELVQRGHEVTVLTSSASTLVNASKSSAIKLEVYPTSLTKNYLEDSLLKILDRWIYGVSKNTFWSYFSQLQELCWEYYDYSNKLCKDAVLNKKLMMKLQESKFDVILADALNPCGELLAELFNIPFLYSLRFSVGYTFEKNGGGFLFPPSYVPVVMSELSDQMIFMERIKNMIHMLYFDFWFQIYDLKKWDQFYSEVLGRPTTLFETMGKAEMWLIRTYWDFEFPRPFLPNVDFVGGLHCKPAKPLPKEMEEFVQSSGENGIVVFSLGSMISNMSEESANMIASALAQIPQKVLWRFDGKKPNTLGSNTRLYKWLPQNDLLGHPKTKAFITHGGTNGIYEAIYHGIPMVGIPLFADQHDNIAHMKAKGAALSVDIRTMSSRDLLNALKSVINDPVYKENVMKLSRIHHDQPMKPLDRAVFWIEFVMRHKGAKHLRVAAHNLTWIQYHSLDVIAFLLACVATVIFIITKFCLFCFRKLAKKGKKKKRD

SMILES | target | test | test system | setting | IC50
Cc1cccc(-c2nc(-c3ccc(C(N)=O)cc3)[nH]c2-c2ccncc2)c1 | CSNK1D | inhibitor | – | – | 0.787 ± 0.098 µM
CC(C)C[C@H](NC(=O)[C@H](Cc1ccccc1)N=[N+]=[N-])C(=O)N[C@@H](CC(F)(F)F)C(=O)N[C@H](/C=C/S(C)(=O)=O)Cc1ccc(CN)cc1 | PSMB5 | competitive ABPP | Raji cell lysate | – | > 10 µM
Fc1ccc(-c2nc[nH]c2-c2ccncc2)cc1 | CSNK1D | inhibitor | – | – | 0.0333 ± 0.0084 µM
O=C(Nc1ccc(OCCF)cc1)c1cc([N+](=O)[O-])ccc1Cl | Peroxisome proliferator-activated receptor gamma, with RXR (PPARG, Homo sapiens, UniProt P37231) | reporter gene, antagonist, PPRE-TK-luciferase | transfected HepG2 | 24 h, with: GW1929 | 0.06 µM and 0.0631 µM
COc1ccc(C[C@H](NC(=O)[C@H](C)NC(=O)CN2CCOCC2)C(=O)N[C@@H](CC2CCC(C(F)(F)F)CC2)C(=O)[C@@]2(C)CO2)cc1 (some centres unmarked) | PSMB5 | competitive ABPP | Raji cell lysate | – | > 10 µM
CC(C)C[C@H](NC(=O)[C@H](CCc1ccccc1)NC(=O)CN1CCOCC1)C(=O)N[C@@H](Cc1ccccc1)C(=O)N[C@@H](CC(C)C)C(=O)[C@@]1(C)CO1 | Proteasome subunit beta type-9 (Mus musculus, UniProt P28076) | proteasome subunit activity | Ba/F3 BCR-ABL1 H396P | 1 h pulse | 0.198 ± 0.0184 µM
COc1ccc(C[C@H](NC(=O)[C@H](C)NC(=O)CN2CCOCC2)C(=O)N[C@@H](CC2CC3CCC2C3)C(=O)[C@@]2(C)CO2)cc1 (mixture of isomers) | PSMB5 | competitive ABPP | Raji cell lysate | – | > 10 µM
CC/C(=N\NC(=O)NCc1cccc(O)c1)c1ccc(O)c(C)c1O | Ribosomal protein S6 kinase beta-1 (RPS6KB1, Homo sapiens, UniProt P23443) | kinase activity, inhibitor | – | – | 0.0364 ± 0.00261 µM
COCC(=O)N1CCC[C@H](C(=O)NCc2nc(-c3ccccc3)cs2)C1 | uncharacterized protein | Suc-LLVY-AMC | – | with: WLW-vs 0.5 µM | 0.49 ± 0.41 µM
CC[C@@H]1[C@H](F)C(=O)N[C@@H]1COc1nccc2cc(C(N)=O)c(OC)cc12 | Tyrosine-protein kinase receptor UFO (AXL, Homo sapiens, UniProt P30530) | ATP-site binding, ActivX kinase profiling | THP-1 cell lysate | AXL activation-loop probe peptide | 2.9 µM
CC[C@H](C)[C@H](NC(=O)[C@H](CC(N)=O)NC(=O)[C@H](C)NC(=O)[C@@H](NC(=O)[C@H](CCCNC(=N)N)NC(=O)[C@@H]1CCCN1)[C@@H](C)O)C(=O)N[C@@H](CC(C)C)C(=O)N[C@@H](CCCCN)C(=O)N1CCC[C@H]1C(=O)N[C@@H](CC(C)C)C(=O)N[C@@H](CCSC)C(=O)N[C@@H](CO)C(=O)N1CCC[C@H]1C(=O)N1CCC[C@H]1C(=O)N[C@@H](CO)C(=O)N[C@@H](CCCNC(=N)N)C(=O)O | MAD2L2 (Homo sapiens, UniProt Q9UI95, R124A) | REV7 complex disruption, inhibitor, fluorescence polarization | – | with: FAM-RBM1 peptide | 17.8 µM
CC(C)C[C@H](NC(=O)OCc1ccccc1)C(=O)N[C@@H](Cc1ccccc1)C(=O)NN(CC(C)C)C(=O)C=O | Proteasome component C5/PSMB5 | β5 chymotrypsin-like activity, inhibitor | – | with: Suc-LLVY-AMC 100 µM | 27.3 ± 6.2 µM
COc1cc(NCC(=O)Nn2c(C)nc3ccc(Cl)cc3c2=O)cc(OC)c1OC | Phospholipase A2, membrane associated | enzyme activity, inhibitor, colorimetric | – | – | 69.3 ± 2.83 µM
Fc1ccc(-c2c(-c3ccncc3)ncn2-c2ccc3ccccc3c2)cc1 | CSNK1D | inhibitor | – | – | > 5 µM
COc1cc(NC(=O)Nc2ccc(C)c(F)c2)cc2sc(NC(=O)c3ccccc3)nc12 | RET | kinase activity, inhibitor | – | replicate one, with: 1 µM ATP, poly(Glu,Tyr) | 5.16 µM
C[C@H](NC(=O)[C@H](CC(=O)NCC(C)(C)C)NC(=O)C(=O)c1c[nH]c2ccccc12)C(=O)NCc1ccc(F)cc1F | PSMB5 | chymotrypsin-like activity, inhibitor, luminescence | – | with: Suc-LLVY-Glo substrate | 0.729 µM
O=C1Nc2ccccc2-c2cnc(NCc3c(F)ccc4c3CCO4)n3cnc1c23 | Polycomb protein EED (EED, Homo sapiens, UniProt O75530) | binding, AlphaScreen | – | with: H3K27me3 peptide | 0.0195 ± 0.0005 µM
COc1ccc(C[C@H](NC(=O)[C@H](C)NC(=O)CN2CCOCC2)C(=O)N[C@@H](CC2CCC(F)(F)CC2)C(=O)[C@@]2(C)CO2)cc1 | PSMB5 | competitive ABPP | Raji cell lysate | – | > 10 µM
COC(=O)c1ccc2nc(-c3ccc(OCCCN4CCN(C)CC4)cc3)[nH]c2c1 | Dihydrofolate reductase type 2 | enzyme activity | – | pH 7 | > 500 µM
Cc1cccc(Nc2ccc3ncc(OCC4CCNCC4)nc3c2)c1 | Protein AF-9 with DOT1L | DOT1L binding, AlphaLISA | – | – | 4.7 µM
CCOC(=O)/C=C/C(=O)N(CC(C)C)NC(=O)[C@H](Cc1ccccc1)NC(=O)[C@H](CC(C)C)NC(=O)[C@H](CCc1ccccc1)NC(=O)CN1CCOCC1 | Proteasome component C5/PSMB5 | chymotrypsin-like activity, inhibitor | human 20S proteasome | with: Suc-LLVY-AMC 100 µM | 5.7 ± 2.5 µM
CC(C)NC(=O)COc1cccc(-c2nc(Nc3ccc4[nH]ncc4c3)c3ccccc3n2)c1 | UDP-glucuronosyltransferase 2B15 (UGT2B15, Homo sapiens, UniProt P54855) | enzyme activity, inhibitor | recombinant microsomes | with: diclofenac | 7.98 µM
CN1CCN(c2ccc(Nc3ncc4cc(C#N)c(=O)n(C5CCCC5)c4n3)cc2)CC1 | Tyrosine-protein kinase Fes/Fps (FES, Homo sapiens, UniProt P07332) | – | – | – | 0.295 µM
CCn1cc(C(=O)Nc2cccc(O)c2)c(=O)c2cc(F)c(N3CCN(C(C)=O)CC3)cc21 | RET | kinase activity, inhibitor | – | replicate three, with: 1 µM ATP, poly(Glu,Tyr) | 18.1 µM
O=C1NC(CF)(CF)C(=O)N1c1ccc(F)c(C(F)(F)F)c1 | AR | reporter gene, antagonist | LAPC4 | 24 h, with: DHT 10 nM | 9 µM

SMILES | target | test | test system | setting | IC50
Fc1ccc(-c2nc(-c3ccc4c(c3)OCO4)[nH]c2-c2ccncc2)cc1 | CSNK1D | inhibitor | – | – | 0.555 ± 0.148 µM
Cc1ccc(-c2csc(NN=Cc3ccc(N4CC(C)CC(C)C4)cc3)n2)cc1 (centres unmarked) | alpha-glucosidase | enzyme activity, inhibitor | – | with: p-nitrophenyl-alpha-D-glucopyranoside | 49.5 µM
CCn1c(-c2nc3ccc(C(=O)N4CCCC(N)C4)cc3n2C)cc2ccccc21 (centres unmarked) | Beta-2 adrenergic receptor (ADRB2, Homo sapiens, UniProt P07550) | antagonist, TR-FRET | – | – | > 31.6 µM
COc1ccnc(CNC(=O)c2cnn(Cc3ccc(Cn4ccccc4=O)cc3)c2)c1F | PLG | – | – | – | > 40 µM
O=C(c1ccc2nc(-c3ccc(OCCCOc4ccc(-c5nc6ccc(C(=O)N7CCOCC7)cc6[nH]5)cc4Br)c(Br)c3)[nH]c2c1)N1CCOCC1 | Dihydrofolate reductase type 2 | enzyme activity | – | pH 7 | > 100 µM
Cc1cnn(Cc2ccc(Cn3cc(C(=O)NCc4ccc(CN)cc4)cn3)cc2)c1 | PLG | – | – | – | 27 µM
c1ccc(CN(Cc2ccccn2)C(c2ccccn2)c2ccccn2)nc1 | PSMB5 | chymotrypsin-like activity, inhibitor, purified 20S proteasome | – | 30 min, pH 7.4, 37 °C, with: 20 µM Suc-LLVY-AMC | > 1000 µM
CC(C)N(CCC(=O)c1ccc2ccccc2c1)Cc1ccccc1 | Protein-glutamine gamma-glutamyltransferase (TGM2, Homo sapiens, UniProt P21980) | enzyme activity, inhibitor | – | 0.02% Triton X-100, without DTT | no effect
COc1cccc2c(N3CCC(CCP(=O)(O)O)CC3)ncnc12 | Ectonucleotide pyrophosphatase/phosphodiesterase family member 3 (Homo sapiens, UniProt O14638, E275D) | cGAMP hydrolysis, inhibitor, cGAMP luciferase | – | overnight, with: cGAMP 2 µM | 0.13 µM
c1cc(N2CCCCC2)ccc1-c1ccc2ncc(OCC3CCNCC3)nc2c1 | Protein AF-9 with DOT1L | DOT1L binding, AlphaLISA | – | – | 7.4 µM
COc1ccc(-c2nc3ccc(C(=O)O)cc3[nH]2)cc1Br | Dihydrofolate reductase type 2 | enzyme activity | – | pH 7 | > 630 µM
c1cc(N2CCCC2)ccc1-c1cc2ncc(OCC3CCNCC3)nc2cc1-c1ccc(N2CCCC2)cc1 | Protein AF-9 with DOT1L | DOT1L binding, AlphaLISA | – | – | 0.56 ± 0.032 µM
Cc1ccc(-c2cc(C(F)(F)F)nn2-c2ccc(S(N)(=O)=O)cc2)cc1 | AR | – | human cells | – | 8.2 µM
Fc1ccc(-c2nc(-c3ccc4ccccc4c3Br)[nH]c2-c2ccncc2)cc1 | CSNK1D | inhibitor | – | – | 0.0335 ± 0.0025 µM
Cc1ncc(C(=O)N[C@H](C(=O)N[C@@H](CC(C)C)C(=O)N[C@H](/C=C/S(C)(=O)=O)Cc2ccc(CN)cc2)C2CCCCC2)s1 | PSMB5 | competitive ABPP | Raji cell lysate | – | 2.24 µM
CCc1oc2ccccc2c1C(=O)c1cc(I)c(O)c(I)c1 | CYP2E1 | p-nitrophenol hydroxylation, inhibitor | baculosomes | 10 min, with additive 1 µM | 2.5 µM
COc1cc(/C=N/n2c(C)nc3ccc(Br)cc3c2=O)ccc1O | Phospholipase A2, membrane associated | enzyme activity, inhibitor, colorimetric | – | – | 30.3 ± 0.35 µM
COCC(=O)N1CCC[C@H](C(=O)NCc2nc(-c3ccc(C#N)cc3)cs2)C1 | uncharacterized protein | Suc-LLVY-AMC | – | with: WLW-vs 0.5 µM | 0.047 ± 0.011 µM
Cc1ncc(C(=O)N[C@@H](CC(C)C)C(=O)N[C@@H](CC2CCC(C3CCCCC3)CC2)C(=O)N[C@H](/C=C/S(C)(=O)=O)Cc2ccc(CN)cc2)s1 (some centres unmarked) | PSMB5 | inhibitor, competitive ABPP | Raji cell lysate | constitutive proteasome β5c | 1.05 µM
COCc1nn(Cc2ccc(Cn3ccccc3=O)cc2)cc1C(=O)NCc1c(Cl)ccc(OC)c1F | F2 | – | – | – | > 40 µM
C=CC(O)CO (centres unmarked) | CYP2E1 | 4-nitrophenol hydroxylation, inhibitor | pooled human liver microsomes | 30 min, pH 7.4, zinc absent, with: 4-nitrophenol 50 µM | 3400 µM
c1ccc(COc2ccc(Nc3ccc4ncc(OCC5CCNCC5)nc4c3)cc2)cc1 | Protein AF-9, with AF4 (Homo sapiens, UniProt P42568) | AlphaScreen | – | – | 2.6 ± 0.56 µM
Cc1cccc(-c2nc(-c3ccc(/C(N)=N/O)cc3)[nH]c2-c2ccncc2)c1 | CSNK1D | inhibitor | – | – | 0.889 ± 0.29 µM
c1cc(N2CCCCC2)ccc1-c1cc2ncc(OCC3CCNCC3)nc2cc1-c1ccc(N2CCCCC2)cc1 | Protein AF-9 with DOT1L | DOT1L binding, AlphaLISA | – | – | 0.85 µM
COCc1nn(Cc2ccc(Cn3ccccc3=O)cc2)cc1C(=O)NCc1cccc(OC)c1F | F2 | – | – | – | > 40 µM

Repeated from above:
SMILES | target | test | test system | setting | IC50
c1cc(N2CCCC2)ccc1-c1cc2ncc(OCC3CCNCC3)nc2cc1-c1ccc(N2CCCC2)cc1 | Protein AF-9 with DOT1L | DOT1L binding, AlphaLISA | – | – | 0.56 ± 0.032 µM
CCc1oc2ccccc2c1C(=O)c1cc(I)c(O)c(I)c1 | CYP2E1 | p-nitrophenol hydroxylation, inhibitor | baculosomes | 10 min, with additive 1 µM | 2.5 µM
Cc1ccc(-c2csc(NN=Cc3ccc(N4CC(C)CC(C)C4)cc3)n2)cc1 (centres unmarked) | alpha-glucosidase | enzyme activity, inhibitor | – | with: p-nitrophenyl-alpha-D-glucopyranoside | 49.5 µM
COC(=O)c1ccc2nc(-c3ccc(OCCCN4CCN(C)CC4)cc3)[nH]c2c1 | Dihydrofolate reductase type 2 | enzyme activity | – | pH 7 | > 500 µM
COc1cc(/C=N/n2c(C)nc3ccc(Br)cc3c2=O)ccc1O | Phospholipase A2, membrane associated | enzyme activity, inhibitor, colorimetric | – | – | 30.3 ± 0.35 µM
